Results collected from several papers.
Each numbered part is a random draw from the data of one study; scales do not carry over between parts. Changes are numbered by the printed parent chain.

Sample 1
Target: Centromere-binding protein 1, full length, N-terminal tag (CBF1, Saccharomyces cerevisiae, UniProt P17106, residues 1-351)
UniProt P17106, sequence (whole entry, looked up): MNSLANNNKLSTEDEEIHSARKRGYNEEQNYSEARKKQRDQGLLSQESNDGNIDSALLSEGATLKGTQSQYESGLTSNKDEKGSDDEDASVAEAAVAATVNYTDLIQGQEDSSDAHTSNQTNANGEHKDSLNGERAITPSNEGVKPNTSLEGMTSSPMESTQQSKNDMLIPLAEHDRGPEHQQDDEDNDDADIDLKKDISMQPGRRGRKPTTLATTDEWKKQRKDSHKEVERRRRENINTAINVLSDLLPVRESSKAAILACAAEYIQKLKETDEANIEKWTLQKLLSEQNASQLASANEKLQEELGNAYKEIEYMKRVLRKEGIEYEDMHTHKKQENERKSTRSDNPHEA
Technique: protein-binding microarray
Molecule type: double-stranded DNA, one strand shown
Matrix: in vitro
Concentration: 0.8 µM
Setting: whole 60-bp probe, no competitor
Direction: higher = stronger binding
Constant ends, left off below: … GTCTTGATTCGCTTGACGCTGCTG
| Strand | fluorescence intensity |
| --- | --- |
| GAAGTGACGCCCTGTTAGGTGACATTAGAAAGGTAG | 531 a.u. |
| CTAACGTGAAATGTGCACGGGGAAATGATCGCCTTC | 659 a.u. |
| GAATTGGCCTTCTTTCGTGCGCTTTCCTAAAGGTAG | 495 a.u. |
| GAAGGATTGCAAGGGCACGCTAGTTGGATGTGCTAG | 510 a.u. |
| CCTAACTACTATATACACCTGCTATAGCTTCGTACA | 537 a.u. |

Sample 2
Target: RNA binding protein fox-1 homolog 2, RRM domain, GST-SBP tag (RBFOX2, Homo sapiens, UniProt O43251-10, residues 100-194)
Technique: RNA Bind-n-Seq
Molecule type: RNA
Matrix: in vitro
Concentration: 365 nM
Setting: natural RNA segment, single round, ends assumed
Baseline: no-protein control
Direction: higher = stronger binding
Constant ends, left off below: GGGAGUUCUACAGUCCGACGAUC … UGGAAUUCUCGGGUGCCAA
Construct (chain): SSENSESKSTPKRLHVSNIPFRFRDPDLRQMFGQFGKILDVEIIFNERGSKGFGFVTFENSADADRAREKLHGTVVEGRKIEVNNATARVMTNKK
| Strand | RBNS enrichment (R) |
| --- | --- |
| CAUGUUAGCCAGGAUGGUCUCGAUCUCCUGACCUCGUGAUCCACUCACCUCAGCCUCCCAAAAUCCUGGGGUUACAGAUGUGAGCUACCACUCACGGCCCAAAUCUUCUU | 0.249 |
| GAAGAAUGAACUCAGAGGAGGUUGUUUACAUGAGGUUCUCCCACUCACCAGCUGUUGAGAGUCUGCGAUUAUGAAGAGCAGGAUCUUAUUACUUCAAUGAAAGCAUGUAA | 8.74 |
| AGGAGUUCGCUCUUGCGUUUCUUCCCCUCCCCAAGAAGGGAGGGGGCUACUUCAGGCCCUUCUGUGUGUUGCCUGGCAGGAUACCUUGUCCAACCAGCUACCCACCUCAA | 0.201 |
| UCCUUUGUAUAGGAGUAUGCUCACUUAAAUUUACAGAAAGAGGUGAGCUGUGUUAAACCUCAGAGUUUAAAAGCUACUGAUAAACUGAAGAAAGUGUCUAUAUUGGAACU | 0.347 |
| UUGAAUUUGGGCUCCAUCAGUAAUUUUUGACAUUUUCACCAAAAUAUAGUUUGCACUUUUUAAUCUAAAGUCAUCCCUUCUGAGUGAAAUUUGCUCAUAAAGCAUUUGGA | 0.363 |

Further values, each from its own experiment
CCNB1: CCNB1, cyclin fold, Cln2 fusion (human)
P1: GMNC docking peptide (human); KNAKRNLSSEFAN
| Molecule | target | test | system | setting | scale | endpoint | value |
| --- | --- | --- | --- | --- | --- | --- | --- |
| P1 F11P | CCNB1 | yeast growth competition, sequencing | yeast | weak parent motif | baseline: not given, higher = stronger binding | normalised enrichment score | -0.41 |
| PhoQ, residues 284 288 289 292 302 303 ALASRC | PhoP, residues 12 14 15 18 19 HLGGL (Escherichia coli, UniProt P23836) | Sort-seq, refers to: YFP reporter | E. coli | PhoQ-PhoP variant library, together with: 10 µM Mg2+ | baseline: high Mg2+ state, higher = stronger signaling | fold induction | 4.39 |
| P1 K4E | CCNB1 | yeast growth competition, sequencing | yeast | weak parent motif | baseline: not given, higher = stronger binding | normalised enrichment score | -0.2 |

Excerpt of the above (sample 2):
| Strand | RBNS enrichment (R) |
| --- | --- |
| UUGAAUUUGGGCUCCAUCAGUAAUUUUUGACAUUUUCACCAAAAUAUAGUUUGCACUUUUUAAUCUAAAGUCAUCCCUUCUGAGUGAAAUUUGCUCAUAAAGCAUUUGGA | 0.363 |
